Assay results from different studies.
Protocols differ between the studies behind these lines. In brackets after ≈: the same amount, converted by molar mass.
UniProt Q13546, sequence (whole entry, looked up): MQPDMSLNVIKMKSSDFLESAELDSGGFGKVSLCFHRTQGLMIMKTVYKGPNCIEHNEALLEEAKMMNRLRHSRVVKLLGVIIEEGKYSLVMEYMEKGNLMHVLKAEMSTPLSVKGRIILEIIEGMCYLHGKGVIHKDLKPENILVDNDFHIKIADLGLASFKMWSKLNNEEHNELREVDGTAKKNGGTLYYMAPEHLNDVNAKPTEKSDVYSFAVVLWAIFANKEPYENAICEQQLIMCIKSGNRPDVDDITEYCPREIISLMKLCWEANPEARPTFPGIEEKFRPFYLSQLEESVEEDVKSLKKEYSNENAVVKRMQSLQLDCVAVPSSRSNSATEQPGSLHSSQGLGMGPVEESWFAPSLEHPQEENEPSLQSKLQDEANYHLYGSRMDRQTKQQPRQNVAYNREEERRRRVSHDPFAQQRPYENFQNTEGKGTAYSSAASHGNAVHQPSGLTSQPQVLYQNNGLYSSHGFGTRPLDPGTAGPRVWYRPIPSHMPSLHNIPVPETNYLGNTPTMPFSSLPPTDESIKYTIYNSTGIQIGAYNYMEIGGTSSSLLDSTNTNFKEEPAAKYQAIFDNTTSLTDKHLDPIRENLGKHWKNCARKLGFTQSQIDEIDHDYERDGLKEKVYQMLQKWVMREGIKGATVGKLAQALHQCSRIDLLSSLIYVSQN

CC(C)(C)[C@H](NC(=O)[C@H](CCONC(=N)N)NC(=O)Cc1ccc(CNC(=N)N)cc1)C(=O)N[C@@H](CCONC(=N)N)C(=O)NCc1ccc(C(=N)N)cc1 — Vd (male Sprague-Dawley rat, plasma; intravenous, 1 mg/kg): 0.569 L/kg
CC(C)C[C@H](NC(=O)[C@H](Cc1ccccc1)NC(=O)[C@H](Cc1ccccc1)NC(=O)Cc1ccc(-c2ccccc2)cc1)C(=O)N[C@@H](CCCCN)C(=O)N[C@@H](CCCNC(=N)N)C(=O)N[C@H](C(=O)N[C@@H](Cc1c[nH]c2ccccc12)C(=O)N[C@@H](CCCCN)C(=O)N[C@@H](CCCNC(=N)N)C(=O)O)C(C)C — compound remaining (metabolic stability; monkey, liver microsomes; 5 min): 24.3%
[2H]c1c([2H])c([C@]2([2H])CCCN2C(=O)C(C)(C)Oc2ccc3cn[nH]c3c2)c([2H])c([2H])c1C([2H])([2H])[2H] — remaining binding (Receptor-interacting serine/threonine-protein kinase 1 (RIPK1, Homo sapiens, UniProt Q13546); binding, competition with immobilised ligand; 1 µM): 1.1%
C[C@H]1COCCN1c1nc(NCc2cccnc2C(F)(F)F)c2cccnc2n1 — hepatocyte CLint (metabolic stability; monkey, hepatocytes): 4.6 µL/min/10⁶ cells
N=c1c2c(-c3ccccc3)c(-c3ccccc3)n(Cc3ccccc3)c2ncn1[C@H]1CC[C@H](O)CC1 — half-life (male cynomolgus monkey, plasma; intravenous, 0.5 mg/kg, single dose): 40.1 h
CC[C@H](C)[C@H]1C(=O)N[C@H](Cc2ccc(O)cc2)C(=O)N[C@H](C(=O)O)CSSC[C@H](N)C(=O)N[C@@H](Cc2ccccc2)C(=O)N[C@@H](C(C)C)C(=O)N[C@@H](CC(C)C)C(=O)N2CCC[C@H]2C(=O)N[C@@H](CC(N)=O)C(=O)N[C@@H](Cc2ccc(O)cc2)C(=O)N1C — thermodynamic solubility (aqueous buffer; 18 h, pH 7.4): 641 µM (≈ 799 µg/mL)
N#Cc1cc(NC(=O)[C@H]2c3ccccc3C(=O)N(CC(F)(F)F)[C@@H]2c2cccnc2)ccc1F — NOAEL (general toxicity; Sprague-Dawley rat; oral, multiple doses): 75 mg/kg
CC[C@@H](C)[C@H]1NC(=O)[C@@H](Cc2ccc(O)cc2)NC(=O)[C@H](CCCNC(=N)N)NC(=O)[C@H](CCSC)NC(=O)[C@H](CC(C)C)NC(=O)[C@H](CC(C)C)NC(=O)[C@H]2CCCN2C(=O)[C@H](CC(C)C)NC(=O)CNC(=O)CNC(=O)CNC1=O — solubility (aqueous buffer; 18 h, pH 7.4): 661 µM (≈ 774 µg/mL)
CC[C@H](C)CCCCC(=O)N[C@@H](CCN)C(=O)N[C@H](C(=O)N[C@@H](CCN)C(=O)N[C@H]1CCNC(=O)[C@H]([C@@H](C)O)NC(=O)[C@H](CCN)NC(=O)[C@H](CCN)NC(=O)[C@H](CC(C)C)NC(=O)[C@@H](CC(C)C)NC(=O)[C@H](CCN)NC1=O)[C@@H](C)O — clearance (male Sprague-Dawley rat, plasma; intravenous, 5 mg/kg): 6.81 mL/min/kg
CC(C)C[C@H]1C(=O)O[C@H](Cc2ccc(N3CCOCC3)cc2)C(=O)N(C)[C@@H](CC(C)C)C(=O)O[C@H](C)C(=O)N(C)[C@@H](CC(C)C)C(=O)O[C@H](Cc2ccc(N3CCOCC3)cc2)C(=O)N(C)[C@@H](CC(C)C)C(=O)O[C@H](C)C(=O)N1C — solubility (aqueous buffer; 18 h, pH 7.4): 1 µM (≈ 1.12 µg/mL)
C=C(C)[C@@H]1CC[C@]2(NCCN3CCS(=O)(=O)CC3)CC[C@]3(C)[C@H](CC[C@@H]4[C@@]5(C)CC=C(C6=CC[C@@](COc7ncccc7C#N)(C(=O)O)CC6)C(C)(C)[C@@H]5CC[C@]43C)[C@@H]12 — concentration (human, plasma; oral, 100 mg, 24 h, fed): 317 ng/mL

A few entries again:
N=c1c2c(-c3ccccc3)c(-c3ccccc3)n(Cc3ccccc3)c2ncn1[C@H]1CC[C@H](O)CC1 — half-life (male cynomolgus monkey, plasma; intravenous, 0.5 mg/kg, single dose): 40.1 h
